Assay results collected from several papers.
Compare with care: the assays were run in different laboratories. ± marks the error that the study gave.

| SMILES | test | test system | conditions | scale | endpoint | result |
| --- | --- | --- | --- | --- | --- | --- |
| Cc1c(C(=O)Nc2ccn(C)n2)ncn1Cc1cccc(C(F)(F)F)c1 | – | C57BL/6 mouse, non-transgenic, brain | drinking water, 15 mg/kg daily, 10 days | – | brain concentration | 59.3 ± 6 ng/g |
| C=CC(=O)Nc1cc(Nc2nccc(-n3ccc4nc(OC)ccc43)n2)c(OC)cc1N(C)CCN(C)C | – | BALB/c nude mouse, H1975 intracranial | oral, 60 mg/kg, 1 h | – | brain tumour to tumour-free brain ratio | 5.46 |
| N#CCc1cccc(Cl)c1-c1ccc2[nH][11c](=O)[nH]c2c1 | – | mouse | 5 min | reference: no inhibitor | brain uptake | 0.5 ± 0.1 %ID/g |
| CCC1CC2C(C)=CC3C(=O)CCCC3C=CC(C)=CC2C(=O)O1 (stereo not shown) | – | ICR mouse (male), brain | intravenous, 2 mg/kg, 60 min | – | brain concentration | 8.9 ± 3.6 ng/g |
| [11CH3]N1CCCC[C@H]1[C@@H](NC(=O)c1nccc(C(F)(F)F)c1Cl)c1cccc(-c2cn[nH]c2)c1 | – | male ddY mouse, brain | iv, 15 min | – | brain uptake | 0.19 % injected dose/g |
| NS(=O)(=O)NCC(F)(F)c1ccccc1F | – | mouse | oral, 5 mg/kg, at Cmax | – | brain to plasma ratio | 2.4 |
| N#Cc1cc(C(=O)OCC[18F])c(C(F)(F)F)nc1N1CCN(C(=O)Cc2ccccc2)CC1 | dynamic PET | healthy C57BL/6 mouse | intravenous, 11.1 MBq | – | brain SUVmean | 0.69 ± 0.11 |
| Cc1cc2c(c(=O)o1)C=C1CCC(C(C)CNCc3ccc(O)cc3)CC1O2 (stereo not shown) | HPLC-MS | mouse | ip, dose not given, 30 min | – | brain concentration | 18600 ng/mL |
| C[C@H](CN(C)Cc1ccccc1)NC(=O)c1ccc(-c2noc(C(F)(F)[18F])n2)cc1 | microPET | mouse | 30 min after injection | – | brain uptake | 3.06 ± 0.19 %ID/cc |
| COc1ccc(NC(=O)N2CCCN3CCC(c4ccc(C#CC5CCCC5)cc4)C3C2)cc1 (stereo not shown) | – | CD-1 mouse, brain homogenate | dose not given | – | brain tissue binding | 100% |
| O=C1CCc2ccc(NS(=O)(=O)c3cccc(Oc4ccccc4)c3)cc2N1 | – | C57BL/6J mouse, brain | 3 mg/kg | reference: oral over subcutaneous | brain Cmax ratio | 84% |
| Nc1nc(Cl)nc2c1ncn2Cc1cc(OCC(F)F)cc(OC(F)F)c1 | – | C57BL/6J mouse male, brain homogenate | oral, 5.0 mg/kg, 4 h | – | brain concentration | ~281 nM |
| O=S(=O)(N[C@@H]1CCC[C@H](N2c3ccccc3Oc3ccccc32)[C@H]1O)c1ccc(OC(F)(F)F)cc1 | – | mouse, brain | oral, 30 mg/kg twice daily | – | brain exposure | 10 µM |

Excerpt of the above:
| SMILES | test | test system | conditions | scale | endpoint | result |
| --- | --- | --- | --- | --- | --- | --- |
| Cc1cc2c(c(=O)o1)C=C1CCC(C(C)CNCc3ccc(O)cc3)CC1O2 (stereo not shown) | HPLC-MS | mouse | ip, dose not given, 30 min | – | brain concentration | 18600 ng/mL |
| C[C@H](CN(C)Cc1ccccc1)NC(=O)c1ccc(-c2noc(C(F)(F)[18F])n2)cc1 | microPET | mouse | 30 min after injection | – | brain uptake | 3.06 ± 0.19 %ID/cc |
